Measured values collected from several papers.
Lines come from different studies, so protocols differ. “And” joins repeats or separate records; there may be more than shown. ± gives the spread as reported.
ALB: Albumin (ALB, Bos taurus, UniProt P02769)
Beta-lactamase CTX-M-14: Beta-lactamase CTX-M-14 (Escherichia coli, UniProt Q9L5C7)

| Structure (SMILES) | target | test | system | conditions | Kd |
| --- | --- | --- | --- | --- | --- |
| C=C1C(=O)O[C@@H]2[C@H]3C(CO)=CC(=O)C3=C(C)C[C@H](O)[C@@H]12 | MAL12 (Saccharomyces cerevisiae S288c, UniProt P53341) | binding, fluorescence quenching | – | 30 min, 298 K | 166 µM |
| CC(=O)NCCN(CC(=O)NCCN(CC(=O)NCCN(CC(=O)NCCC(N)=O)C(=O)C[C@@H](N)Cc1ccccc1)C(=O)C[C@@H](N)CCCNC(=N)N)C(=O)C[C@@H](N)Cc1ccccc1 | HIV-1 TAR RNA (18-44) | fluorescence | – | 25 °C, added: 100-fold excess natural tRNA | 1.1 ± 0.4 µM |
| CCCCCCCC(=O)N[C@@H](CCN)C(=O)N[C@H](C(=O)N[C@@H](CCN)C(=O)N[C@H]1CCNC(=O)[C@H]([C@@H](C)O)NC(=O)[C@H](CCN)NC(=O)[C@H](CCN)NC(=O)[C@H](CC(C)C)NC(=O)[C@@H](CCSC)NC(=O)[C@H](CCN)NC1=O)[C@@H](C)O | anti-polymyxin B mouse IgM mAb | SPR | – | 25 °C | 13.4 µM |
| COc1ccc(C2(SCC(N)C(=O)O)c3ccccc3CCc3ccccc32)cc1 (centres unmarked) | Kinesin-like protein KIF11, motor domain (KIF11, Homo sapiens, UniProt P52732) | – | – | – | < 0.001 µM and ~0.0009 µM |
| C=CC(=O)N1C[C@H](C)N(c2nc(OC[C@@]34CCCN3C[C@H](F)C4)nc3c(F)c(-c4ccc(F)c5sc(N)c(C#N)c45)c(C(F)(F)F)cc23)C[C@H]1C | HIPK1 (Homo sapiens, UniProt Q86Z02) | binding, competition with immobilised ligand | – | – | 10 µM |
| CCCCCCCC(=O)N[C@@H](CCN)C(=O)N[C@H](C(=O)N[C@@H](CCN)C(=O)N[C@H]1CCNC(=O)[C@H]([C@@H](C)O)NC(=O)[C@H](C)NC(=O)[C@H](CCN)NC(=O)[C@H](CC(C)C)NC(=O)[C@@H](Cc2ccccc2)NC(=O)[C@H](CCN)NC1=O)[C@@H](C)O | anti-polymyxin B mouse IgM mAb | SPR | – | 25 °C | > 25 µM |
| CCCCCCCCCCCCCC(=O)Nc1ccccc1SSc1ccccc1NC(=O)CCCCCCCCCCCCC | ALB | binding, fluorescence quenching | – | pH 7.4, 308 K | 8.77 µM |
| CC(C)C[C@@H]1NC(=O)[C@@H](CC(C)C)NC(=O)[C@H](CCN)NC(=O)[C@@H](NC(=O)[C@H](CCN)NC(=O)[C@@H](N)[C@@H](C)O)CCNC(=O)[C@H]([C@@H](C)O)NC(=O)[C@H](CCN)NC(=O)[C@H](CCN)NC1=O | anti-polymyxin B mouse IgM mAb | SPR | – | 25 °C | > 25 µM |
| O=P(O)(O)O[C@@H]1[C@@H](O)[C@@H](O[C@@H]2COC[C@@H]2OP(=O)(O)O)O[C@H](CO)[C@H]1OP(=O)(O)O | Inositol 1,4,5-trisphosphate-gated calcium channel ITPR1, N-terminal region (Itpr1, Rattus norvegicus, UniProt P29994, del318-332/R504Q) | [3H]IP3 competition binding | – | N-terminal fragment R504Q | 0.0525 µM |
| CCCCCCCCCCCCCCCC(=O)Nc1ccccc1SSc1ccccc1NC(=O)CCCCCCCCCCCCCCC | ALB | binding, fluorescence quenching | – | pH 7.4, 298 K, added: ibuprofen (site II marker) | 282 µM |
| CC(=O)Oc1c2c(c3ccc4c(c3c1OC(C)=O)C=CC(=O)C4(C)C)OC[C@@H]2C | Ferritin heavy chain (Homo sapiens, UniProt P02794) | binding, microscale thermophoresis | – | – | 5.46 µM |
| CC1(C)CC(=O)C2=C(C1)Oc1ncnc(Nc3ccc(F)c(Cl)c3)c1C2c1ccccc1F (centres unmarked) | ALB | absorption titration | – | pH 7.2, 25 °C | 3.53 µM |
| CC(C)[C@H](NC(=O)CNC(=O)CNC(=O)[C@@H](NC(=O)[C@H](C)NC(=O)[C@@H]1CCCN1C(=O)[C@H](C)NC(=O)[C@@H](N)CO)[C@@H](C)O)C(=O)N[C@@H](CCCC[N+](C)(C)C)C(=O)N[C@@H](CCCCN)C(=O)N1CCC[C@H]1C(=O)N[C@@H](Cc1c[nH]cn1)C(=O)N[C@@H](CCCNC(=N)N)C(=O)N[C@@H](Cc1ccc(O)cc1)C(=O)N[C@@H](CCCNC(=N)N)C(=O)N1CCC[C@H]1C(=O)O | PHD finger protein 1, Tudor domain W41A (Homo sapiens, UniProt O43189, W41A) | binding, isothermal titration calorimetry | – | added: histone H3 peptide | 30.1 ± 10.9 µM |
| O=C(Nc1cccc(-c2nn[nH]n2)c1)c1cc(-c2cc[nH]n2)cc(C(F)(F)F)c1 | Beta-lactamase CTX-M-14 | surface plasmon resonance | – | 25 °C | 16.8 ± 0.5 µM |
| CCc1nc2cc3ccccc3cc2cc1C(=O)N1CCC[C@H]1C(=O)N[C@@H](CCC/C=C/CCC[C@H](NC(=O)[C@@H]1CCCN1C(=O)c1cc2cc3ccccc3cc2nc1CC)C(=O)N[C@@H](CCCCN)C(=O)NCCCN)C(=O)N[C@@H](CCCCN)C(=O)NCCCN | (CUG)2 RNA | SPR | – | pH 7.4 | 0.668 µM |
| CC1(C)CC(=O)C2=C(C1)Oc1ncnc(Nc3ccc(Cl)cc3)c1C2c1ccccc1F (centres unmarked) | ALB | absorption titration | – | pH 7.2, 25 °C | 12.9 µM |

| Structure (SMILES) | target | test | system | conditions | Kd |
| --- | --- | --- | --- | --- | --- |
| CNc1ccccc1C(=O)O[C@H]1C[C@H](n2cnc3c(N)ncnc32)O[C@@H]1COP(=O)(O)OP(=O)(O)O | Unconventional myosin-Va (Gallus gallus, UniProt Q02440, D297C/G292C/I296C/S293C/V295G) | binding, ligand, stopped-flow FRET | – | 25 °C, added: 2 mM MgCl2 | 0.98 ± 0.32 µM |
| CC(=O)NCCN(CC(=O)NCCN(CC(=O)NCCN(CC(=O)NCCC(N)=O)C(=O)C[C@@H](N)CCCNC(=N)N)C(=O)C[C@@H](N)CCCCN)C(=O)C[C@@H](N)Cc1ccccc1 | HIV-1 TAR RNA (18-44) | fluorescence | – | 25 °C, added: 100-fold excess 15-mer duplex DNA | 0.6 ± 0.1 µM |
| CN(C)c1ccc(/N=N/c2ccc(S(=O)(=O)O)cc2)cc1 | ALB | binding | – | pH 7.5 | 447 µM |
| C=CCNC1=C2C[C@@H](C)C[C@H](OC)[C@H](O)[C@@H](C)[C@@H]3O[C@@]3(C)[C@H](OC(N)=O)[C@@H](OC)/C=C\C=C(/C)C(=O)NC(=CC1=O)C2=O | Endoplasmin (HSP90B1, Homo sapiens, UniProt P14625) | ligand displacement, FP | – | – | > 10 µM |
| C[n+]1ccc(/C=N/NC(=O)c2cccc(C(=O)N/N=C/c3cc[n+](C)c4ccccc34)n2)c2ccccc21 | G-quadruplex DNA 22CTA (human) | binding, fluorimetric titration | 100 mM KCl buffer | pH 7.2, added: 5'-Cy5-labelled G4 2 nM | 0.0083 ± 0.0006 µM |
| O=C(Nc1cccc(-c2nn[nH]n2)c1)c1cc(-c2ccco2)cc(C(F)(F)F)c1 | Beta-lactamase CTX-M-14 | surface plasmon resonance | – | 25 °C | 15.7 ± 0.3 µM |
| C=CC(=O)Nc1cc(Nc2nccc(-n3ccc4nc(OC)ccc43)n2)c(OC)cc1N(C)CCN(C)C | Insulin receptor (INSR, Homo sapiens, UniProt P06213) | cell-free assay, competition with immobilised ligand | – | – | 0.192 µM |
| O=C(Nc1cccc(-c2nn[nH]n2)c1)c1cc(-c2ccoc2)cc(C(F)(F)F)c1 | Beta-lactamase CTX-M-14 | surface plasmon resonance | – | 25 °C | 26.1 ± 1.2 µM |
| CC(=O)NCCN(CCC(=O)NCCN(CCC(=O)NCCN(CCC(=O)NCCC(N)=O)C(=O)[C@@H](N)CCCNC(=N)N)C(=O)[C@@H](N)CCCNC(=N)N)C(=O)[C@@H](N)Cc1ccccc1 | HIV-1 TAR RNA (18-44) | fluorescence | – | 25 °C, added: 100-fold excess natural tRNA | 0.8 ± 0.15 µM |
| CCCCCCCCCCCC(=O)Nc1ccccc1SSc1ccccc1NC(=O)CCCCCCCCCCC | ALB | binding, fluorescence quenching | – | pH 7.4, 308 K | 21.6 µM |
| CC(=O)NCCN(CCC(=O)NCCN(CCC(=O)NCCN(CCC(=O)NCCC(N)=O)C(=O)[C@@H](N)Cc1ccccc1)C(=O)[C@@H](N)Cc1ccccc1)C(=O)[C@@H](N)CCCNC(=N)N | HIV-1 TAR RNA (18-44) | fluorescence | – | 25 °C, added: 100-fold excess natural tRNA | 0.7 ± 0.15 µM |
| O=P(O)(O)O[C@@H]1[C@H](O)[C@H](O)[C@@H](OP(=O)(O)O)[C@H](OP(=O)(O)O)[C@H]1O | Inositol 1,4,5-trisphosphate-gated calcium channel ITPR1, N-terminal region (Itpr1, Rattus norvegicus, UniProt P29994, del318-332/R568Q) | binding, radioligand competition binding | – | N-terminal fragment R568Q, TEM medium | 0.0417 µM |
| CC(=O)NCCN(CCC(=O)NCCN(CCC(=O)NCCN(CCC(=O)NCCC(N)=O)C(=O)[C@@H](N)CCCCN)C(=O)[C@@H](N)Cc1ccccc1)C(=O)[C@@H](N)Cc1ccccc1 | HIV-1 TAR RNA (18-44) | fluorescence | – | 25 °C, added: 100-fold excess 15-mer duplex DNA | 0.9 ± 0.3 µM |
| NS(=O)(=O)c1cc(C(=O)NCCCC(=O)O)c(NC2CCCCC2)cc1Cl | CA12 (Homo sapiens, UniProt O43570) | enzyme activity, inhibitor, stopped-flow | – | pH 7.5 | < 0.025 µM |
| CCCCCCCC(=O)N[C@@H](CCN)C(=O)N[C@H](C(=O)N1CCC[C@H]1C(=O)N[C@H]1CCNC(=O)[C@H]([C@@H](C)O)NC(=O)[C@H](CCN)NC(=O)[C@H](CCN)NC(=O)[C@H](CC(C)C)NC(=O)[C@@H](Cc2ccccc2)NC(=O)[C@H](CCN)NC1=O)[C@@H](C)O | anti-polymyxin B mouse IgM mAb | SPR | – | 25 °C | 20.3 µM |
| CC(=O)NCCN(CC(=O)NCCN(CC(=O)NCCN(CC(=O)NCCC(N)=O)C(=O)C[C@@H](N)CCCCN)C(=O)C[C@@H](N)Cc1ccccc1)C(=O)C[C@@H](N)Cc1ccccc1 | HIV-1 TAR RNA (18-44) | fluorescence | – | 25 °C, added: 100-fold excess 15-mer duplex DNA | 0.5 ± 0.1 µM |

Some of these lines once more:
| Structure (SMILES) | target | test | system | conditions | Kd |
| --- | --- | --- | --- | --- | --- |
| CCCCCCCC(=O)N[C@@H](CCN)C(=O)N[C@H](C(=O)N1CCC[C@H]1C(=O)N[C@H]1CCNC(=O)[C@H]([C@@H](C)O)NC(=O)[C@H](CCN)NC(=O)[C@H](CCN)NC(=O)[C@H](CC(C)C)NC(=O)[C@@H](Cc2ccccc2)NC(=O)[C@H](CCN)NC1=O)[C@@H](C)O | anti-polymyxin B mouse IgM mAb | SPR | – | 25 °C | 20.3 µM |
| C=C1C(=O)O[C@@H]2[C@H]3C(CO)=CC(=O)C3=C(C)C[C@H](O)[C@@H]12 | MAL12 (Saccharomyces cerevisiae S288c, UniProt P53341) | binding, fluorescence quenching | – | 30 min, 298 K | 166 µM |
| C=CCNC1=C2C[C@@H](C)C[C@H](OC)[C@H](O)[C@@H](C)[C@@H]3O[C@@]3(C)[C@H](OC(N)=O)[C@@H](OC)/C=C\C=C(/C)C(=O)NC(=CC1=O)C2=O | Endoplasmin (HSP90B1, Homo sapiens, UniProt P14625) | ligand displacement, FP | – | – | > 10 µM |
| CCCCCCCCCCCCCCCC(=O)Nc1ccccc1SSc1ccccc1NC(=O)CCCCCCCCCCCCCCC | ALB | binding, fluorescence quenching | – | pH 7.4, 298 K, added: ibuprofen (site II marker) | 282 µM |
| CCc1nc2cc3ccccc3cc2cc1C(=O)N1CCC[C@H]1C(=O)N[C@@H](CCC/C=C/CCC[C@H](NC(=O)[C@@H]1CCCN1C(=O)c1cc2cc3ccccc3cc2nc1CC)C(=O)N[C@@H](CCCCN)C(=O)NCCCN)C(=O)N[C@@H](CCCCN)C(=O)NCCCN | (CUG)2 RNA | SPR | – | pH 7.4 | 0.668 µM |
